Assay results gathered from unrelated publications.
A part holds a random share of what one study measured. Values joined by “and” are separate records of one study, mostly repeats; a detail may differ.
UniProt Q9UQB9, sequence (whole entry, looked up): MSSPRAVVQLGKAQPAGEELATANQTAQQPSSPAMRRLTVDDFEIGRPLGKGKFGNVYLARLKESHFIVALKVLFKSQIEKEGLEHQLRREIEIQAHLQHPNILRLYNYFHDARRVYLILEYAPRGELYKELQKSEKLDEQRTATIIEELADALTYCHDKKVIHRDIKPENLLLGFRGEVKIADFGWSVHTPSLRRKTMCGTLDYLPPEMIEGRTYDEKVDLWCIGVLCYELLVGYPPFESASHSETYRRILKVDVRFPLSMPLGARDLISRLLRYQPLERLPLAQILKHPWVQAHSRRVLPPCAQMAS
UniProt O75676, sequence (whole entry, looked up): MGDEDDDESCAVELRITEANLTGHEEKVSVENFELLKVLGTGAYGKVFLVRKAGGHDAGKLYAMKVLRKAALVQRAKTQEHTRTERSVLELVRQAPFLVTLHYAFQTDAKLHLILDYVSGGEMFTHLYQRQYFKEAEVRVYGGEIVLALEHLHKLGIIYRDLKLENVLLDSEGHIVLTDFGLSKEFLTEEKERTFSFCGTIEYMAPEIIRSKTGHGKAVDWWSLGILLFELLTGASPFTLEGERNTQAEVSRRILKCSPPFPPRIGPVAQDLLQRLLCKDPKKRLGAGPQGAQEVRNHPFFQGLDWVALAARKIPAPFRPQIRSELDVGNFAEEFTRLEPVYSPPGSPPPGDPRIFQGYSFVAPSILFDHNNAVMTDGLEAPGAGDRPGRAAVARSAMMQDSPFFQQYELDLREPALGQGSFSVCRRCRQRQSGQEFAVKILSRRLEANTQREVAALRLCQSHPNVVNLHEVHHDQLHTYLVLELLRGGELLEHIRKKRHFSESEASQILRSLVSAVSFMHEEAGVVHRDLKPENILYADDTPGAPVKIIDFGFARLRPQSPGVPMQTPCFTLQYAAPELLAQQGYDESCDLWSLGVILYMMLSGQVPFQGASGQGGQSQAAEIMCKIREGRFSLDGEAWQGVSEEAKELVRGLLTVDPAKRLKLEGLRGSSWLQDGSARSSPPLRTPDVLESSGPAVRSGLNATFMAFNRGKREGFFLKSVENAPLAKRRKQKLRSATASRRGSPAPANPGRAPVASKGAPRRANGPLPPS
UniProt Q9NSY1, sequence (whole entry, looked up): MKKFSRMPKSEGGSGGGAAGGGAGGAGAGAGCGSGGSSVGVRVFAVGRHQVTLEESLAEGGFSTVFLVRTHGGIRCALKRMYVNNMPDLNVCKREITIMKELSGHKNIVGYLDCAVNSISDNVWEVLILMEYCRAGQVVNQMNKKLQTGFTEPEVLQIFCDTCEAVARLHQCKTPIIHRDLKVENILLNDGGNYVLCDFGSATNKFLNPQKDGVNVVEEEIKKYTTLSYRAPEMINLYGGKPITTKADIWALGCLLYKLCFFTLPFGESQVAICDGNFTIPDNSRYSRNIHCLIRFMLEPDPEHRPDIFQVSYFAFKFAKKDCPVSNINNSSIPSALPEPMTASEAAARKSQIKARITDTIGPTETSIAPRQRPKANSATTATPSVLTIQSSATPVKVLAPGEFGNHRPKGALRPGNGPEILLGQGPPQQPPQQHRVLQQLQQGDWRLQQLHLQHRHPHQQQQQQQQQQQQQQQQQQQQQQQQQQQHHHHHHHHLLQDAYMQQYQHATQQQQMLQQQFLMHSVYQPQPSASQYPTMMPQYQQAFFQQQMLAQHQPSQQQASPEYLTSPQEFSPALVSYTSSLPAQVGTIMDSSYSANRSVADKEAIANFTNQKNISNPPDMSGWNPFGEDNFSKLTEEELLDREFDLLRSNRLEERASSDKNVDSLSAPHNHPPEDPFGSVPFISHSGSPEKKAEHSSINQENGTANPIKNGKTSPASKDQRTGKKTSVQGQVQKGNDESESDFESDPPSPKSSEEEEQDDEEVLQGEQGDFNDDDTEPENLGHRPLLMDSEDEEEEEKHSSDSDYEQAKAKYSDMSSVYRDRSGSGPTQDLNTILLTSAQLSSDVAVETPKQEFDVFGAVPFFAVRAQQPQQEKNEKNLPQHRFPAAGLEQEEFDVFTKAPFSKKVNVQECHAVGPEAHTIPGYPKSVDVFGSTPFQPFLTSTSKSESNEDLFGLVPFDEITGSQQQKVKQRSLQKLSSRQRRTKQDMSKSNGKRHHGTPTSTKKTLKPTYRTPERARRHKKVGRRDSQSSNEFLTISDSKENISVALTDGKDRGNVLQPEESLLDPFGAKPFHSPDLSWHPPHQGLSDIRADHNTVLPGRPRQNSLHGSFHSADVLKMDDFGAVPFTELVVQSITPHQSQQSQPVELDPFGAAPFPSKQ
UniProt Q9Y6R4, sequence (whole entry, looked up): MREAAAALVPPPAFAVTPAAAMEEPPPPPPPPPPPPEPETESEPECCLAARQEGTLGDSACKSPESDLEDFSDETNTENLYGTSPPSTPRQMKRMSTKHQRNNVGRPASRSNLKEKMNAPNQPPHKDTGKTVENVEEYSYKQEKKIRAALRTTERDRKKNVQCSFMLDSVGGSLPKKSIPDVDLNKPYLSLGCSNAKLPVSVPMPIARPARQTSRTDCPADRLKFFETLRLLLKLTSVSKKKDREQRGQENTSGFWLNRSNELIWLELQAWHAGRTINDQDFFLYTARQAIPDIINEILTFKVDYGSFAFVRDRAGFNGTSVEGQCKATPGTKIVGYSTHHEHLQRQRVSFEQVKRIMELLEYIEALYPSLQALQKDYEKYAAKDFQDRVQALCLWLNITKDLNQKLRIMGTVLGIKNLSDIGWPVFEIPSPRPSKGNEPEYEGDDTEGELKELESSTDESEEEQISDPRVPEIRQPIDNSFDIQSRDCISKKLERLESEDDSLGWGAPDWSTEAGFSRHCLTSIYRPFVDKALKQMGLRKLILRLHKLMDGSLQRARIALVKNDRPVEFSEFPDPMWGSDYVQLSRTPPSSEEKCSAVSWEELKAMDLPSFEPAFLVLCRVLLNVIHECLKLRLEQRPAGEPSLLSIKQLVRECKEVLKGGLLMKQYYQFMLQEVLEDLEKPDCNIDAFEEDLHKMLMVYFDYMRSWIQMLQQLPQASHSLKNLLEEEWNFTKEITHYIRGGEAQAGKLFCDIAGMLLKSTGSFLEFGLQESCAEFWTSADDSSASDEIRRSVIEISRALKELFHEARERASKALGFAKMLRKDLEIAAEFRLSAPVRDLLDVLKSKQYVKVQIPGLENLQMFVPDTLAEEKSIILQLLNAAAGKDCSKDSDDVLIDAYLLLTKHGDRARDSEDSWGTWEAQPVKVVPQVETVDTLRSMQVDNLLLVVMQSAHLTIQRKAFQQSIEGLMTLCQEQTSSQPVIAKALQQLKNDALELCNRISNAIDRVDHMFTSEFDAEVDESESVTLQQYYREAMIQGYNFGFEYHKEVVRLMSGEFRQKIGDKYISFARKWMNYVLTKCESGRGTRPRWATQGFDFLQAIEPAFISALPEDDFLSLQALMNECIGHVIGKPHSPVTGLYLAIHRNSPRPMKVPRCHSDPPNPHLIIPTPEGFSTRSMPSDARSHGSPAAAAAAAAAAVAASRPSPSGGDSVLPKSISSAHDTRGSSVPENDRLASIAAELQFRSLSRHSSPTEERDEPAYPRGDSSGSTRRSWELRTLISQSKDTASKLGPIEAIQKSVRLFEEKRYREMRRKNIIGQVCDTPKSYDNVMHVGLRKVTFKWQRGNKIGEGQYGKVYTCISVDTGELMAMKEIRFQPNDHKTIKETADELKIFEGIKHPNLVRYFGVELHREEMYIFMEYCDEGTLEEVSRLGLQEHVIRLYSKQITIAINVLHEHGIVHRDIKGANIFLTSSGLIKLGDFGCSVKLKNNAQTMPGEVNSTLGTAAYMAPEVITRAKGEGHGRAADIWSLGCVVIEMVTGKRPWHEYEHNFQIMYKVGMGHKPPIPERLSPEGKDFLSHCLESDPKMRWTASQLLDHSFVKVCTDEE
UniProt Q96SB4, sequence (whole entry, looked up): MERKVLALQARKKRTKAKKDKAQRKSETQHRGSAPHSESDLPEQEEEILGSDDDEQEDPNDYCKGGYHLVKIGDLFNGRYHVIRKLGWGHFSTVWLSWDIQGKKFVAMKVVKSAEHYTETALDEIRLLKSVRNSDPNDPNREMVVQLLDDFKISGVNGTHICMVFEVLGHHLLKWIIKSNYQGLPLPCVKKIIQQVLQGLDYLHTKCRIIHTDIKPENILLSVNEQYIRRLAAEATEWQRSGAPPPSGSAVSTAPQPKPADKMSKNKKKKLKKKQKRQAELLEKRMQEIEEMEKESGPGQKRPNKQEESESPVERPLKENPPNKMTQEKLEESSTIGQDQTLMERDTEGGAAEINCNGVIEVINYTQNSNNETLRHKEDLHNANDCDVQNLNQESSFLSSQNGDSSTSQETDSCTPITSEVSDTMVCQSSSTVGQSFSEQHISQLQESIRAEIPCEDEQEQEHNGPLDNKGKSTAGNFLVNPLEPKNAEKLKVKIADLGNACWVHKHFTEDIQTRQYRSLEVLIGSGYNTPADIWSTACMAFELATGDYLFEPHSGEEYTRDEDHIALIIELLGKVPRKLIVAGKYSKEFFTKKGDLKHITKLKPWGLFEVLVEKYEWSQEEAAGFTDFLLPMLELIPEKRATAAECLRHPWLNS
UniProt O75716, sequence (whole entry, looked up): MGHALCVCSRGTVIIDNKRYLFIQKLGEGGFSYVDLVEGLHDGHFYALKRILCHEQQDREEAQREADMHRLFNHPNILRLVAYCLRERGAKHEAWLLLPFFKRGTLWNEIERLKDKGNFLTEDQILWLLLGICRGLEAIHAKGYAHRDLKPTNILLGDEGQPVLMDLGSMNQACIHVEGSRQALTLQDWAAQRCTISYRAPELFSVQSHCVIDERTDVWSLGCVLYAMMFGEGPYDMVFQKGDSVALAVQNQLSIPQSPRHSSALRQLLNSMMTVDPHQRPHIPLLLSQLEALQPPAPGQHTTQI

Study 1
Compound: Cc1c(NC(=O)c2cc(C(N)=O)nc3cc(F)ccc23)c(C(F)(F)F)nn1Cc1ccc(C#N)cc1
Concentration: 1 µM
Endpoint: remaining binding
EGFR (Homo sapiens, UniProt P00533, L858R); cell-free assay, competition with immobilised ligand: 97%
SIK2 (Homo sapiens, UniProt Q9H0K1); cell-free assay, competition with immobilised ligand: 100%
ERN1 (Homo sapiens, UniProt O75460); cell-free assay, competition with immobilised ligand: 78%
MET (Homo sapiens, UniProt P08581, Y1235D); cell-free assay, competition with immobilised ligand: 100%
SRPK1 (Homo sapiens, UniProt Q96SB4); cell-free assay, competition with immobilised ligand: 83%
LIM domain kinase 2 (LIMK2, Homo sapiens, UniProt P53671); cell-free assay, competition with immobilised ligand: 95%
STK16 (Homo sapiens, UniProt O75716); cell-free assay, competition with immobilised ligand: 100%
MAP3K6 (Homo sapiens, UniProt O95382); cell-free assay, competition with immobilised ligand: 75%
BMP2K (Homo sapiens, UniProt Q9NSY1); cell-free assay, competition with immobilised ligand: 96%
Ribosomal protein S6 kinase alpha-4, N-terminal kinase domain (RPS6KA4, Homo sapiens, UniProt O75676); cell-free assay, competition with immobilised ligand: 100%
EGFR (Homo sapiens, UniProt P00533, del746-750); cell-free assay, competition with immobilised ligand: 59%
AAK1 (Homo sapiens, UniProt Q2M2I8); binding: 79%
EPHA7 (Homo sapiens, UniProt Q15375); cell-free assay, competition with immobilised ligand: 86%
FLT3 (Homo sapiens, UniProt P36888, D835V/ITD); cell-free assay, competition with immobilised ligand: 80%
MAP3K4 (Homo sapiens, UniProt Q9Y6R4); cell-free assay, competition with immobilised ligand: 97%
CHUK (Homo sapiens, UniProt O15111); cell-free assay, competition with immobilised ligand: 65%
CDK17 (Homo sapiens, UniProt Q00537); cell-free assay, competition with immobilised ligand: 92%
Aurora kinase C (AURKC, Homo sapiens, UniProt Q9UQB9); cell-free assay, competition with immobilised ligand: 90%

Study 2
Cell line: HaCaT
Concentration: 100 µM
Time: 18 h
Endpoint: viability
Cn1c(=O)c2[nH]cnc2n(C)c1=O: 102% and 110%
CC(C(=O)O)c1ccc2c(c1)CC(=O)c1ccccc1S2 (stereo not drawn): 110%
Cc1c(NC(=O)c2cccnc2)c(=O)n(-c2ccccc2)n1C: 107%
C[C@@H](c1ncncc1F)[C@](O)(Cn1cncn1)c1ccc(F)cc1F: 114%
CC(C)(C)c1cc(C(C)(C)C)c(NC(=O)c2c[nH]c3ccccc3c2=O)cc1O: 17%
CC(C)[C@H](N)C(=O)OCC(CO)OCn1cnc2c(=O)nc(N)[nH]c21 (stereo partly drawn): 107%
N=C(N)N/N=C/c1c(Cl)cccc1Cl: 85.1%

Study 3
Cell line: mouse MPNST tumor cells
Method: high-content nuclear imaging
Measured: cell number
Concentration: 10 µM
Time: 12 h
Notes: mean of 2 replicates
Reference: plate mean
Direction: higher = more cells
Endpoint: nuclei count
COc1cc(-c2ccc(N=Nc3ccc4c(S(=O)(=O)O)cc(S(=O)(=O)O)c(N)c4c3O)c(OC)c2)ccc1N=Nc1ccc2c(S(=O)(=O)O)cc(S(=O)(=O)O)c(N)c2c1O: 0.597 z-score
CC(NC(=O)Cc1cc(F)cc(F)c1)C(=O)NC1C(=O)N(C)c2ccccc2-c2ccccc21 (stereo not drawn): -0.87 z-score
CCCCc1cc2ccccc2c(OCCN(C)C)n1: -0.638 z-score
Cc1cc2c(cc1N1C(=O)c3cccc4c(CCCO)ccc(c34)C1=O)n(C)c(=O)n2C: -3.66 z-score and -3.87 z-score
CN1CCN(C(=O)c2nc3ccc(Cl)cc3[nH]2)CC1: 0.669 z-score
c1ccc(C(NCc2cccnc2)(c2ccccc2)c2ccccc2)cc1: -0.623 z-score
O=C(CNC(=O)c1ccc(-c2ccccc2)cc1)NC1CCCc2ccccc21 (stereo not drawn): 0.294 z-score
CCOC(Cn1nc(-c2ccc3oc(N)nc3c2)c2c(N)ncnc21)OCC: -1.65 z-score
CNC(=O)COC(=O)NCCC1CCN(c2cccc(C)n2)CC1: 1.43 z-score
Cc1cccc(C)c1-n1c(=O)c2cnc(Nc3ccc(N4CCN(C)CC4)cc3)nc2n2c3ccccc3nc12: -4.7 z-score
COc1cc2c(cc1OC)C(=O)C(CC1CCN(Cc3ccccc3)CC1)C2 (stereo not drawn): 0.897 z-score

Study 4
Target: MAP kinase-activated protein kinase 5 (MAPKAPK5, Homo sapiens, UniProt Q8IW41)
Read-out: enzyme activity
Action: inhibitor
Concentration: 0.5 µM
Reference: control
Endpoint: remaining activity
Residues (Q8IW41 1-473): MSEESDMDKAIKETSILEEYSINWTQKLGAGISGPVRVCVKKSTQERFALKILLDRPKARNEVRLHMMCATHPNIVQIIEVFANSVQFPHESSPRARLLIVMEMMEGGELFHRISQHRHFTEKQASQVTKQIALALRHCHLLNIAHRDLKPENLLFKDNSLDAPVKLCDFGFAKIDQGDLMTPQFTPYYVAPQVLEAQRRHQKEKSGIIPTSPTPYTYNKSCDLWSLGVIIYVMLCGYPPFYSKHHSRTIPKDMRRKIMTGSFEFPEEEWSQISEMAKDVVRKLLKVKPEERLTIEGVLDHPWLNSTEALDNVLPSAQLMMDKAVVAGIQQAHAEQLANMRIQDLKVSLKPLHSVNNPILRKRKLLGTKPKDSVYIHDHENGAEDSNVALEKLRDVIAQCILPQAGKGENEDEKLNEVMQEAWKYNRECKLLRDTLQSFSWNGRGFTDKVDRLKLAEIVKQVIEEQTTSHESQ
CCCCc1c(-c2ccc(O)cc2)[nH]c2nccnc12: 93.1%
N#C/C(=C(/N)SC1C=CC=CC1)c1cccc(C(O)c2ccncc2)c1 (stereo not drawn): 84.9%
O=C(O)/C=C/c1cc(Br)c(Br)c(Br)c1Br: 72.6%
COc1cc2c(N3CCN(C(=O)Nc4ccc(OC(C)C)cc4)CC3)ncnc2cc1OCCCN1CCCCC1: 91.9%
CC(C)(C)c1nc2c3cc[nH]c(=O)c3c3cc(F)ccc3c2[nH]1: 88.1%
C[C@@H](N)[C@H]1CC[C@H](C(=O)Nc2ccncc2)CC1: 90.8%
O=C1c2ccccc2-c2nc3nnnn3nc21: 66.9%
CC(C)N(CCC(=O)c1ccc2ccccc2c1)Cc1ccccc1: 96.6%
NC(=O)c1ccc(-c2nc(-c3ccc4c(c3)OCCO4)c(-c3ccccn3)[nH]2)cc1: 69.6%
O=C1NC(=O)/C(=C/c2ccc3c(c2)OC(F)(F)O3)S1: 98.2%
CC(C)n1cnc2c(Nc3cccc(Cl)c3)nc(NCCO)nc21: 68.6%
NC(=O)c1cccc(-c2cc(Nc3ccc(OC(F)(F)F)cc3)ncn2)c1: 94.3%

For quick reference, copied from above (study 1):
STK16 (Homo sapiens, UniProt O75716); cell-free assay, competition with immobilised ligand: 100%
EPHA7 (Homo sapiens, UniProt Q15375); cell-free assay, competition with immobilised ligand: 86%
MET (Homo sapiens, UniProt P08581, Y1235D); cell-free assay, competition with immobilised ligand: 100%
ERN1 (Homo sapiens, UniProt O75460); cell-free assay, competition with immobilised ligand: 78%
EGFR (Homo sapiens, UniProt P00533, del746-750); cell-free assay, competition with immobilised ligand: 59%
BMP2K (Homo sapiens, UniProt Q9NSY1); cell-free assay, competition with immobilised ligand: 96%
CHUK (Homo sapiens, UniProt O15111); cell-free assay, competition with immobilised ligand: 65%
